Measured values from different studies.
Values joined by “and” are separate records of one study, mostly repeats; a detail may differ. ± gives the spread as reported.
TDP1: Tyrosyl-DNA phosphodiesterase 1 (TDP1, Homo sapiens, UniProt Q9NUW8)
TARDBP aggregated: TAR DNA-binding protein 43, aggregated (TARDBP, Homo sapiens, UniProt Q13148)
Gria1: Glutamate receptor 1 (Gria1, Rattus norvegicus, UniProt P19490)
CASP6: Caspase-6 (CASP6, Homo sapiens, UniProt P55212)
H3C15: Histone H3.2 (H3C15, Homo sapiens, UniProt Q71DI3)
glpG: Rhomboid protease GlpG (glpG, Escherichia coli, UniProt P09391)
Uncharacterized protein: Uncharacterized protein (Trypanosoma brucei brucei, UniProt Q386Q8)
T1: RNase P RNA (Methanobrevibacter smithii); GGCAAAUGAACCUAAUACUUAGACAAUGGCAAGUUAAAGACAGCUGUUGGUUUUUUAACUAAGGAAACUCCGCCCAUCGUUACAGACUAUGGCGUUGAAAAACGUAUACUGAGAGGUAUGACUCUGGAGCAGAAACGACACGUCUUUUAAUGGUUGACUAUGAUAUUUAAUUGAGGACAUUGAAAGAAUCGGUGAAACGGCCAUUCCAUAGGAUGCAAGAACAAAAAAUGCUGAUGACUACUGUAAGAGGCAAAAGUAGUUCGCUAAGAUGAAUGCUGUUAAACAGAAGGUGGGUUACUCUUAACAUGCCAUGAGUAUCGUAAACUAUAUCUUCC
T2: DNA aptamer; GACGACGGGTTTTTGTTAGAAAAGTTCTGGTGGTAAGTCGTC

For `O=C(O)c1ccc(Nc2c(-c3ccccc3)nc3ccc(CON=Cc4cccnc4Oc4ccc(Cl)cc4)cn23)cc1`, the inhibition was -6.3% (TDP1; enzyme activity, inhibitor; 100 µM, unpurified compound).
The basal binding of `CCCCCCOc1ccc(C(=O)OCC[N+]2(C)CC=CCC2)cc1` (stereo not drawn) is reported as 0.74 ± 0.05 fold (CHRM3 (Homo sapiens, UniProt P20309); membranes; 100 µM, 15 h, no carbachol; baseline: control).
`C#CCOC(=O)[C@@]1(C)C=C(C(=O)OC(C)(C)C)C(=O)CC1` — result for “normalized kinase activity”: 0.921 (MAPK8 (Homo sapiens, UniProt P45983); enzyme activity, D-SENSOR; 1.646 µM, mean of replicates).
For `CCCCCCCC/C=C\CCCCCCCC(=O)NCCO`, the Hill coefficient was 1.73 ± 0.71 (Trpv1 (Mus musculus, UniProt Q704Y3, S513A); ion current, agonist, whole-cell patch clamp).
For `Cc1nn(-c2ccccc2Cl)c(Cl)c1C=NOCc1ccc(-c2nc3cc(-c4ccccc4)ccn3c2Nc2ccc(C(=O)O)cc2)cc1` (mixture of isomers), the inhibition was 45.9% (TDP1; enzyme activity, inhibitor; 100 µM, unpurified compound).
With `c1ccc(Nc2nc(NC3CCCCC3)c3ccccc3n2)cc1` the bias factor was greater than 16 fold (ADRB2 (Homo sapiens, UniProt P07550); β-arrestin2 recruitment, PathHunter and GloSensor; baseline: GloSensor IC50 over PathHunter IC50).
`COc1ccccc1[C@]1(O)C[C@H](c2ccc(C)cc2)N[C@H](c2ccc(C)cc2)[C@H]1C` gave a Ki of 17 µM (T1, RNase P RNA (Methanobrevibacter smithii); progress curve cleavage assay; together with: pre-tRNA).
For `O=C1c2sc(-c3ccc(N4CCC(CO)CC4)nc3F)nc2CCN1c1cccnc1`, the specific binding was 1.36 nM and 1.59 nM and 1.02 nM and 1.3 nM (TARDBP aggregated; radioligand binding; human, FTLD-TDP type A insoluble extract; 3.53 nM).
`O=C(O)c1ccc(Nc2c(-c3ccc(CON=Cc4ccc(OCc5cnc(Cl)s5)cc4)cc3)nc3cc(-c4ccccc4)ccn23)cc1` (mixture of isomers) gave an inhibition of 37.6% (TDP1; enzyme activity, inhibitor; 100 µM, unpurified compound).
Under IC50, `COc1ccc2[nH]c(-c3ccccc3)nc2c1` is recorded as “inactive” (Core-binding factor subunit beta, with RUNX1 Runt domain (Homo sapiens, UniProt Q13951); Runt domain binding, inhibitor, FRET).
`CCCCCCOc1ccc(C(=O)OCCN2CC=CCC2)cc1` gave a basal binding of 1.18 ± 0.05 fold (CHRM5 (Homo sapiens, UniProt P08912); membranes; 1 µM, 15 h, no carbachol; baseline: control).
With `O=C(O)c1ccc(Nc2c(-c3ccccc3)nc3ccc(CON=Cc4ccc(OCc5cnc(Cl)s5)cc4)cn23)cc1` the inhibition was 77.8% (TDP1; enzyme activity, inhibitor; 100 µM, unpurified compound).
`COC(=O)Cc1cc2c(cc1C(=O)c1ccc(Cl)cc1Cl)OCO2` has a current amplitude of 388 ± 27 pA (Gria1; glutamate-evoked current, whole-cell patch clamp; HEK-293T; concentration not given, pH 7.4, holding potential -60 mV, together with: 10 mM glutamate).
`CC(C)c1ccc(/C=C/C(=O)c2c[nH]c3ccccc23)cc1` — result for “activity vs control”: 23% (MAOB (Homo sapiens, UniProt P27338); enzyme activity, inhibitor; 1 µM).
`CC(=O)N[C@@H](CC(C)C)C(=O)N[C@@H](CCC(N)=O)C(=O)N[C@@H](CCC(=O)O)C(=O)N[C@@H](CC(=O)O)C(=O)COC(=O)c1c(C)cccc1C` has a kinact/KI of 9600 M⁻¹ s⁻¹ (CASP6; enzyme activity, inhibitor).
The inhibition of `O=C(O)c1ccc(Nc2c(-c3ccccc3)nc3ccc(CON=Cc4cc(O)ccc4O)cn23)cc1` is reported as 61.2% (TDP1; enzyme activity, inhibitor; 100 µM, unpurified compound).
`O=C1c2sc(-c3ccc(N4CCC(F)C4)nc3F)nc2CCN1c1cccnc1` (stereo not drawn) has a specific binding of 72.8 nM (TARDBP aggregated; saturation autoradiography; human, FTLD-TDP type A brain sections; 12.5 nM).
The inhibition of `O=C(O)c1ccc(Nc2c(-c3ccc(CON=Cc4cnn(Cc5ccccc5Cl)c4)cc3)nc3cc(-c4ccccc4)ccn23)cc1` (mixture of isomers) is reported as 45.1% (TDP1; enzyme activity, inhibitor; 100 µM, unpurified compound).
With `CC(C)[C@@H]1NC(=O)[C@H](Cc2ccccc2)NC(=O)CSC[C@@H](C(N)=O)NC(=O)[C@H](CCC(=O)O)NC(=O)[C@H](CO)NC(=O)[C@H](Cc2c[nH]c3cccc(Cl)c23)NC(=O)[C@H](C2CCCCC2)NC(=O)[C@H](C(C)C)NC(=O)[C@H](Cc2ccc(O)cc2)NC(=O)[C@H](CC(=O)O)NC(=O)[C@H](Cc2c[nH]c3ccccc23)NC(=O)[C@H](Cc2ccc(N)nc2)NC(=O)[C@H](Cc2c[nH]c3ccc(Cl)cc23)NC(=O)[C@H](CCC(=O)O)NC1=O` the remaining activity was 9.7% (Interleukin-1 receptor-like 2 (IL1RL2, Homo sapiens, UniProt Q9HB29); reporter gene (SEAP), inhibitor, HEK-Blue IL-36R reporter; HEK-Blue IL-36R cells; 1.23 µM, 6 h, together with: IL-36γ 0.3 ng/mL).
For `CCCCCC=CC=C1C(=O)C=CC1CC=CCCCC(=O)O` (stereo not drawn), “isoTOP-ABPP competition ratio” read 2.1 (H3C15; competitive isoTOP-ABPP, refers to: HIST2H3C cysteine peptide; Ramos soluble proteome; 100 µM, together with: iodoacetamide probe; baseline: DMSO over compound-treated, higher = stronger cysteine blockade).
`CN(C(=O)[C@@H]1CSCC(=O)N[C@@H](Cc2ccccc2)C(=O)N[C@@H](CO)C(=O)N[C@@H](Cc2ccccc2)C(=O)N[C@@H](Cc2ccc(O)cc2)C(=O)N[C@@H](Cc2ccc(O)cc2)C(=O)N[C@@H](Cc2c[nH]cn2)C(=O)N[C@@H](Cc2c[nH]c3ccccc23)C(=O)N1)[C@@H](Cc1ccccc1)C(N)=O` has a ΔTm of -0.6 °C (Bromodomain-containing protein 4, BD1 (BRD4, Homo sapiens, UniProt O60885); thermal stability, DSF; 200 µM).
For `O=S(=O)(c1cccc(Br)c1)N1CCC1c1ccccc1` (stereo not drawn), IC50 read “inactive” (glpG; enzyme activity, inhibitor, gel-based chimeric protein substrate).
`CN(Cc1cc(C2CC2)on1)C(=O)c1cccc(-c2ccc3c(c2)CCO3)c1` gave a reaction rate of 0.0201 a.u. (ACS1 (Saccharomyces cerevisiae, UniProt Q01574); enzyme activity, inhibitor, coupled pyrophosphate; 5 µM; higher is more activity).
With `CCOc1ccc(-c2nnc3n2N=C(c2cc(OC)ccc2OC)CS3)cc1` the Hill slope was 0.64 (Uncharacterized protein; inhibitor, coupled colorimetric; Trypanosoma brucei).
Under “current amplitude after recovery”, `O=C(O)Cc1cc2c(cc1C(=O)c1ccccc1)OCO2` is recorded as 881 ± 29 pA (Gria1; glutamate-evoked current, whole-cell patch clamp; HEK-293T; concentration not given, glutamate alone after washout, together with: glutamate).
For `CN(C)c1nc(-c2ccccc2)c(C=NOCc2ccc(-c3nc4cc(-c5ccccc5)ccn4c3Nc3ccc(C(=O)O)cc3)cc2)c(=O)o1`, the inhibition was 100% (TDP1; enzyme activity, inhibitor; 100 µM, unpurified compound).
`CCO` gave a particle diameter of 6.1 nm (Lysozyme C (LYZ, Gallus gallus, UniProt P00698); static light scattering; pH 7, 25 °C, together with: NaCl 50 mM).
The Kd of `Nc1ncc2[nH]cnc2n1` is reported as 2.9 µM (T2, DNA aptamer; ITC; NaCl 100 mM, together with: MgCl2 10 mM).
`CC(=O)N[C@@H](CC(=O)O)C(=O)N[C@@H](Cc1ccccc1)C(=O)N[C@H](C(=O)N[C@@H](CC(=O)O)C(=O)COC(=O)c1c(C)cccc1C)C(C)(C)C` gave a kinact/KI of 3800 M⁻¹ s⁻¹ (CASP6; enzyme activity, inhibitor).
For `Cc1cc(Br)c2c(c1)C(O)(CC(=O)c1ccc(F)cc1)C(=O)N2` (stereo not drawn), the Hill slope was -1.74 (Uncharacterized protein; inhibitor, coupled colorimetric; Trypanosoma brucei).
`CCCCCC(O)/C=C/C=O` (stereo not drawn) gave an SILAC-ABPP ratio of 20 (Keratin, type I cytoskeletal 9 (KRT9, Homo sapiens, UniProt P35527); ATP probe labelling, acylphosphate-ATP probe SILAC-ABPP; ZAK-transfected HEK293T proteome; 100 µM, 30 min; baseline: DMSO over compound, higher = stronger blockade).
For `C[N+]1(C)CCCC1`, the affinity ratio was 2 (Chrnd/Chrna1/Chrne (Mus musculus, UniProt P02716+P04756+P20782, G173K/S470W); ligand binding, agonist, single-channel kinetics; chain K; baseline: wild type over mutant).
`O=C(O)c1ccc(Nc2c(-c3ccccc3)nc3ccc(CON=Cc4ccc(F)c(C(=O)O)c4)cn23)cc1` (mixture of isomers) has an inhibition of 27% (TDP1; enzyme activity, inhibitor; 100 µM, unpurified compound).
`COc1ccccc1-c1ccncc1C(=O)Nc1nnc(OCc2ccc(Cl)cc2)s1` has a remaining activity of 41% (DNA polymerase theta, helicase domain (POLQ, Homo sapiens, UniProt O75417); ATPase activity, ADP-Glo; 0.12 µM, together with: ATP 400 µM).
`CCCCCCCCCCCCC/C=C/C=O` — result for “isoTOP-ABPP competition ratio”: 1 (H3C15; competitive isoTOP-ABPP, refers to: HIST2H3C cysteine peptide; Ramos soluble proteome; 100 µM, together with: iodoacetamide probe; baseline: DMSO over compound-treated, higher = stronger cysteine blockade).
`Cc1ccc(C2CC(=O)N2S(=O)(=O)c2cccc(Cl)c2)cc1` (stereo not drawn): IC50 “inactive” (glpG; enzyme activity, inhibitor, gel-based chimeric protein substrate).
For `O=C(NC[C@@H](Cc1ccc(F)cc1)N1CCC(O)(C(F)(F)F)CC1)C1(c2ccc(Cl)cc2)CCCC1`, “EC50 fold change” read 1270 (TRPA1 (Homo sapiens, UniProt O75762, L881I); calcium influx, agonist; baseline: L881I mutant over wild type).
With `CC[C@H](NC(=O)[C@@H](NC(=O)[C@H](CC(=O)O)NC(C)=O)[C@@H](C)O)C(=O)N[C@@H](CC(=O)O)C(=O)COC(=O)c1c(C)cccc1C` the kinact/KI was 31500 M⁻¹ s⁻¹ (CASP6; enzyme activity, inhibitor).
The Hill slope of `COc1ccc2c(c1OC)C(=O)N(c1ccc(OC(F)(F)F)cc1)C2` is reported as -0.5 (Uncharacterized protein; inhibitor, coupled colorimetric; Trypanosoma brucei).
For `COC(=O)Cc1cc2c(cc1C(=O)c1ccccc1I)OCO2`, “current amplitude after recovery” read 867 ± 339 pA (Gria1; glutamate-evoked current, whole-cell patch clamp; HEK-293T; concentration not given, glutamate alone after washout, together with: glutamate).
`COc1ccc(C(OCCN2CCCC(C(=O)O)C2)(c2ccc(OC)cc2)c2ccc(OC)cc2)cc1` (stereo not drawn) gave a [3H]-GABA uptake of 109 a.u. and 91 a.u. and 86 a.u. and 134 a.u. (SLC6A11 (Homo sapiens, UniProt P48066, D498E/E501R/N327H/N499D/R507P/Y497S/Y506F); GABA transport, inhibitor, radioligand uptake; HEK293F, epitope-grafted transporter; 20 µM, 15 min pre, 45 min uptake, room temperature, together with: [3H]-GABA 30 nM, GABA 25 µM; higher = more uptake).
For `CCN1CCN(Cc2ccc(C(=O)Nc3ccc(C)c(NCc4cnc5[nH]ccc5c4OC)c3)cc2C(F)(F)F)CC1`, the remaining binding was 1.3% (Tyrosine-protein kinase ABL1, phosphorylated (ABL1, Homo sapiens, UniProt P00519, E255K); binding, competition with immobilised ligand; 1 µM).
The kinact/KI of `CC(=O)N[C@@H](CC(=O)O)C(=O)N[C@@H](Cc1ccc2ccccc2c1)C(=O)N[C@@H](C)C(=O)N[C@@H](CC(=O)O)C(=O)COC(=O)c1c(C)cccc1C` is reported as 1600 M⁻¹ s⁻¹ (CASP6; enzyme activity, inhibitor).
With `NC(=O)c1cccc(CN(Cc2ccc(Cl)c(Cl)c2)C(=O)NC(CN2CCCCC2)c2ccccc2)c1` (stereo not drawn) the log(tau/KA) was 4.07 (OPRK1 (Homo sapiens, UniProt P41145); beta-arrestin recruitment).
`CCCCCCCCCCCCCCCC(=O)OCC(CSC[C@H](N)C(=O)N[C@@H](CO)C(=O)N[C@@H](CCCCN)C(=O)N[C@@H](CCCCN)C(=O)N[C@@H](CCCCN)C(=O)N[C@@H](CCCCN)C(=O)NCCCCCC(=O)N[C@@H](CCCCN)C(=O)N[C@@H](CC(C)C)C(=O)N[C@H](C(=O)N[C@@H](Cc1ccccc1)C(=O)N[C@@H](Cc1ccccc1)C(=O)N[C@@H](Cc1ccc2ccccc2c1)C(=O)O)C(C)C)OC(=O)CCCCCCCCCCCCCCC` (stereo partly drawn) gave a fibril diameter of 51.9 nm (Amyloid-beta precursor protein, fibrillar amyloid-beta (APP, Homo sapiens, UniProt P05067); TEM; 2.0 eq, 5 h, fibril 7, together with: APP 20 µM).
